Measurements gathered from unrelated publications.
Numbered parts are unrelated; each lists some results of a single study.
UniProt Q9BWU1, sequence (whole entry, looked up): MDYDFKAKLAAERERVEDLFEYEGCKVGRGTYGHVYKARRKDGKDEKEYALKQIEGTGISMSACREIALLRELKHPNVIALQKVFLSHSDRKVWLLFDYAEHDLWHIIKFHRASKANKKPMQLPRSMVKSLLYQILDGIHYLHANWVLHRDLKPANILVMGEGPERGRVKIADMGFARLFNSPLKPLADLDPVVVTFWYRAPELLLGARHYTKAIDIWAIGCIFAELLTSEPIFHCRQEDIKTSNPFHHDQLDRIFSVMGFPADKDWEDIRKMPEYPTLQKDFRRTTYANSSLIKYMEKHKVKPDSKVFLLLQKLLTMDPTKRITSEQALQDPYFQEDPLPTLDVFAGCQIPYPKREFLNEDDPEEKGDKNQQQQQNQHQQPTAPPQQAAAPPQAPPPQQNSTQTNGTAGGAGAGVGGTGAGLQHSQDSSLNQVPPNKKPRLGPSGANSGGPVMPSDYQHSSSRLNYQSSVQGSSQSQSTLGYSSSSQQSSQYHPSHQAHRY
UniProt P45983, sequence (whole entry, looked up): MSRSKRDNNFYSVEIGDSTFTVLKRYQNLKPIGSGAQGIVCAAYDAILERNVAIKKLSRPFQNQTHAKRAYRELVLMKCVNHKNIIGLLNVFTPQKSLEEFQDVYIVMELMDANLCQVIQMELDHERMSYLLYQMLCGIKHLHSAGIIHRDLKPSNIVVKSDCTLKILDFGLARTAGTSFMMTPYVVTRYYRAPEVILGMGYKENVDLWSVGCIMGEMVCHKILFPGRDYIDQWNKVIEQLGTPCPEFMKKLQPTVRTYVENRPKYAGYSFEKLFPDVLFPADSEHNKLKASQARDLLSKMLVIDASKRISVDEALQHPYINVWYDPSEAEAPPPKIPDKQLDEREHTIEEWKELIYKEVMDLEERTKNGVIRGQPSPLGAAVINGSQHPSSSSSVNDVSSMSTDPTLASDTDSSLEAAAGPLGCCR
UniProt Q14289, sequence (whole entry, looked up): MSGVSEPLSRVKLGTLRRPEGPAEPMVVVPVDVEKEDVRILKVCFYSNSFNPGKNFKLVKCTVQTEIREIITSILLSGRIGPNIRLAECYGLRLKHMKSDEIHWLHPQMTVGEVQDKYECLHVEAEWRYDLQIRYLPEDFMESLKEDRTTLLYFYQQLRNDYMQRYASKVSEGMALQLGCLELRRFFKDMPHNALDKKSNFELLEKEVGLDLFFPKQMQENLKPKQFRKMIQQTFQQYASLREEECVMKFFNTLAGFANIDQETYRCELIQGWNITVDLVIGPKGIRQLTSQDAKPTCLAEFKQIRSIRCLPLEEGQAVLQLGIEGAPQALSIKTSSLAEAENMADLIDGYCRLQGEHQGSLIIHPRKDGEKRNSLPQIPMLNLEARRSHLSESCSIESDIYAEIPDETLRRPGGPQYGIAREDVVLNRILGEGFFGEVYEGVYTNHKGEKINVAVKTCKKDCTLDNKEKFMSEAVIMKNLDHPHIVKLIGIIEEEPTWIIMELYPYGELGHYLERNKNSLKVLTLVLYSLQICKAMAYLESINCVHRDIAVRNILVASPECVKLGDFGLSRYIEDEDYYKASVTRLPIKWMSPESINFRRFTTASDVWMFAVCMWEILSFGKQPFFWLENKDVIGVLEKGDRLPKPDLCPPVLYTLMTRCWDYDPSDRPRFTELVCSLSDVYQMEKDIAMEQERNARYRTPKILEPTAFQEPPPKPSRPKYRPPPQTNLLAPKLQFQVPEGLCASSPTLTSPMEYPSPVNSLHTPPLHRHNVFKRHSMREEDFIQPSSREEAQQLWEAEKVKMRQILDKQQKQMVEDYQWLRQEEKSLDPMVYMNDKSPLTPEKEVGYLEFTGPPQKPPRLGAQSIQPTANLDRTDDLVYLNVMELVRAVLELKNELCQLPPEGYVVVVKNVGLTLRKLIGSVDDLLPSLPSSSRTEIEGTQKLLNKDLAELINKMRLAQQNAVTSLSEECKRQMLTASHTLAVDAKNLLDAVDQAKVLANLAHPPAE
UniProt P07333, sequence (whole entry, looked up): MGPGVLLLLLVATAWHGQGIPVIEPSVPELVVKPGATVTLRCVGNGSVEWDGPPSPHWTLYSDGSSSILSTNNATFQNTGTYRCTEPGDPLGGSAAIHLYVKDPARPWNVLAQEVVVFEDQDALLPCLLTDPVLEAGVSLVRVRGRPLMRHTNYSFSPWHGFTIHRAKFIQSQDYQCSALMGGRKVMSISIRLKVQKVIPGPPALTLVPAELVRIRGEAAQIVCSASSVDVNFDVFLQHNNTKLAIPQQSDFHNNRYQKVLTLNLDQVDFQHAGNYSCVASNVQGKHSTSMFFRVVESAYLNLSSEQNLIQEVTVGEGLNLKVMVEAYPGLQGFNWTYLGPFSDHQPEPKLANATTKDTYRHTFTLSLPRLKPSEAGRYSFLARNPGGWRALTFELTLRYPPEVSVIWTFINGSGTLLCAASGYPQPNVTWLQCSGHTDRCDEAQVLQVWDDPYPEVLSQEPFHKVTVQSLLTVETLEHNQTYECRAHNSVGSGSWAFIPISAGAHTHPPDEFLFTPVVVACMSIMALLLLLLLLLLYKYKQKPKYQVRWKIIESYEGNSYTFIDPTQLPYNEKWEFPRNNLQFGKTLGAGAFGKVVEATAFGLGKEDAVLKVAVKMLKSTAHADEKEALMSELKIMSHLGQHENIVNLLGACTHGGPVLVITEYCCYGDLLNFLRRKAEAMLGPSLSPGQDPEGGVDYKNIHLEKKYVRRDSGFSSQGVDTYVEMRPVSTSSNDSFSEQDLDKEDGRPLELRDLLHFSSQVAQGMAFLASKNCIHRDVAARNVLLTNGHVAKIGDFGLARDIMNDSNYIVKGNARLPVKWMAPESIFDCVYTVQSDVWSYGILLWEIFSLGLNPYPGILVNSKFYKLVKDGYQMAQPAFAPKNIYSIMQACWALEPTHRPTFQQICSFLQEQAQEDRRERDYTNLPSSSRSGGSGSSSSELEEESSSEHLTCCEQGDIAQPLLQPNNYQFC
UniProt P36894, sequence (whole entry, looked up): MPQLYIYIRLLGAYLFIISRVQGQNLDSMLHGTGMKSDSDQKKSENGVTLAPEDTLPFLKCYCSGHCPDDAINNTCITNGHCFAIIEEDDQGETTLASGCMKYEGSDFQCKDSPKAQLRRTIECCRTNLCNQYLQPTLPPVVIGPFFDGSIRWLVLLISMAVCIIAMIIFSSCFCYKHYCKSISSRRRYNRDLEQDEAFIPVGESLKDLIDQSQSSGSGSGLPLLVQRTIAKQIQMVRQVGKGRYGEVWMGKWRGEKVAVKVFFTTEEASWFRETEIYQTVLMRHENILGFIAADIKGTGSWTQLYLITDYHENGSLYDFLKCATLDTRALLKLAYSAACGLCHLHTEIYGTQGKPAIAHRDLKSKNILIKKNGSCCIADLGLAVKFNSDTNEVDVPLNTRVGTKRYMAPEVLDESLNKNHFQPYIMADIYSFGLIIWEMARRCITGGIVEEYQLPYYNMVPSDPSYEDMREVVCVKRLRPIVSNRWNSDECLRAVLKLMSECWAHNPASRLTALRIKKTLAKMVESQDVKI
UniProt Q9Y2H1, sequence (whole entry, looked up): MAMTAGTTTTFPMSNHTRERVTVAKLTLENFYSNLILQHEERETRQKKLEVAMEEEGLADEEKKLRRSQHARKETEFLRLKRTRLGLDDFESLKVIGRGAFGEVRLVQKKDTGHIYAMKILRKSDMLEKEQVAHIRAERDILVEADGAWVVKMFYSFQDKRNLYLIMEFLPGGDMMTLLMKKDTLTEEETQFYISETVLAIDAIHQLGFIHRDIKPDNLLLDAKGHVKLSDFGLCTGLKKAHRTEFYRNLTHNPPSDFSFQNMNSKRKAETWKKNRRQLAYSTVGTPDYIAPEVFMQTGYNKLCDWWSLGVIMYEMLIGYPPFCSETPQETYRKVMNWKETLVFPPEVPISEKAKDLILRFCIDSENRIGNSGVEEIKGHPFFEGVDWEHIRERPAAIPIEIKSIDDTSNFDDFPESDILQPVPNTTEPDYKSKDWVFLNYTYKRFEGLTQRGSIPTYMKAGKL

Sample 1
Target: Calcium/calmodulin-dependent protein kinase type II subunit alpha (CAMK2A, Homo sapiens, UniProt Q9UQM7)
UniProt Q9UQM7, sequence (whole entry, looked up): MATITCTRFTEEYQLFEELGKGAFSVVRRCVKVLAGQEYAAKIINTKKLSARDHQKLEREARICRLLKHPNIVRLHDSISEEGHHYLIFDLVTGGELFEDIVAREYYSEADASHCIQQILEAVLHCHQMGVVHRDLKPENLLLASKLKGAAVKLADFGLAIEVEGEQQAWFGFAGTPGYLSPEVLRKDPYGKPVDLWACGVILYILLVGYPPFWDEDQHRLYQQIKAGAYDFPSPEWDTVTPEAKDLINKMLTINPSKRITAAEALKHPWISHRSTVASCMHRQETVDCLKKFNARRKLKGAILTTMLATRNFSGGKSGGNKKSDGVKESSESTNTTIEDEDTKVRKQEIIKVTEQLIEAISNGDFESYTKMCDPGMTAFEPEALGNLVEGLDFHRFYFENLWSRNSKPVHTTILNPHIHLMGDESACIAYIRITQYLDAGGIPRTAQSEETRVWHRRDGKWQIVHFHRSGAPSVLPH
Read-out: enzyme activity
Mode: inhibitor
Concentration: 10 µM
Endpoint: inhibition
CC(C)OC(=O)CNc1cccc(CN(Cc2ccc(-n3cccn3)cc2)S(=O)(=O)c2cccnc2)n1: -6%
C=C1c2cccc(O)c2C(O)=C2C(=O)[C@]3(O)C(O)=C(C(N)=O)C(=O)[C@@H](N(C)C)[C@@H]3[C@@H](O)[C@H]12: -6%
O=C(O)CCCC[C@@H]1CCSS1: -11%
C[C@H](Cc1cc2c(c(C(N)=O)c1)N(CCCO)CC2)NCCOc1ccccc1OCC(F)(F)F: -1%
CC(=O)O[C@]1(C)CC[C@@]23C[C@@H]1C(C)(C)[C@@H]2CC[C@H]3C: 21%
C[C@H]1[C@H](C)CC[C@]2(C(=O)O)CC[C@]3(C)C(=CC[C@@H]4[C@@]5(C)CC[C@H](O)C(C)(C)[C@@H]5CC[C@]43C)[C@H]12: -6%
C=C1C(=O)O[C@H]2C[C@@H](C)[C@@H]3CCC(=O)[C@@]3(C)[C@@H](OC(C)=O)[C@H]12: -3%
Oc1cc(O)cc(-c2cc3ccc(O)cc3o2)c1: -35%
CC(=O)O[C@@H]1CC[C@@]2(C)[C@@H](CC[C@]3(C)[C@@H]2[C@H](O)C=C2[C@@H]4[C@@H](C)[C@H](C)CC[C@]4(C)CC[C@]23C)[C@@]1(C)C(=O)O: 12%
CCN1CCN(C(=O)N[C@@H](C(=O)N[C@@H]2C(=O)N3[C@@H]2SC(C)(C)[C@@H]3C(=O)O)c2ccccc2)C(=O)C1=O: 4%
COc1c(O)cc2oc(-c3ccc(O)cc3)cc(=O)c2c1O: 0%
C[C@@H](NCCc1ccc(O)cc1)[C@@H](O)c1ccc(O)cc1 (racemic): 2%
O=C1N[C@@H](Cc2c[nH]c3ccccc23)C(=O)N2CCC[C@@H]12: -14%
Cc1ccccc1OCC(O)CO (stereo not drawn): -10%
CC[C@]12CCCN3CCc4c(n(c5ccccc45)[C@@](O)(C(=O)OC)C1)[C@@H]32: 7%
C=C[C@@](C)(/C=C/c1ccc(O)cc1)CCC=C(C)C: -33%
COc1ccc(-c2oc3c(CC=C(C)C)c(O)cc(O)c3c(=O)c2O[C@@H]2O[C@@H](C)[C@H](O)[C@@H](O)[C@H]2O)cc1: 3%
C[C@@H]1O[C@@H](O[C@H]2[C@H](Oc3cc(O)c4c(c3)O[C@H](c3ccc(O)cc3)CC4=O)O[C@H](CO)[C@@H](O)[C@@H]2O)[C@H](O)[C@H](O)[C@H]1O: 2%

Sample 2
Target: Serine/threonine-protein kinase PLK1 (PLK1, Homo sapiens, UniProt P53350)
UniProt P53350, sequence (whole entry, looked up): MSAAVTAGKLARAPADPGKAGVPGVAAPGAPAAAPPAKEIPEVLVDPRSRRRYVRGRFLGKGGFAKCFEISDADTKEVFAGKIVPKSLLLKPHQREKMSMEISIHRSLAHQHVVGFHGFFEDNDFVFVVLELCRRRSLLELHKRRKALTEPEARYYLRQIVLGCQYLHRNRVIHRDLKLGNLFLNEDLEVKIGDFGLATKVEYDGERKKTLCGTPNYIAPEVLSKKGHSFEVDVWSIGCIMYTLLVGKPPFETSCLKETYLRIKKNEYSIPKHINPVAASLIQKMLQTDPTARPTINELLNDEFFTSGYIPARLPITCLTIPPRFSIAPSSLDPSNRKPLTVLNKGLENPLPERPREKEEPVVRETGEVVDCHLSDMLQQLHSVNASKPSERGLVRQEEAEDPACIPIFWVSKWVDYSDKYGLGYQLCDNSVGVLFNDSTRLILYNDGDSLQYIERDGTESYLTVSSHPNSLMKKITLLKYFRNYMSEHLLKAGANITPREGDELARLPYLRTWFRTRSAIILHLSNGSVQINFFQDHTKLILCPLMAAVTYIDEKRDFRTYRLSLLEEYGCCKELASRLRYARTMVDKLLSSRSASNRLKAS
Read-out: enzyme activity
Mode: inhibitor
Concentration: 0.5 µM
Relative to: control
Endpoint: remaining activity
CCCCc1c(-c2ccc(O)cc2)[nH]c2nccnc12: 96.6%
c1cc(-c2cnn3cc(-c4ccc(OCCN5CCCCC5)cc4)cnc23)ccn1: 107%
COc1cc2c(Nc3ccc(Br)cc3F)ncnc2cc1OCC1CCN(C)CC1: 98.5%
NC(=O)c1ccc(-c2nc(-c3ccc4c(c3)OCCO4)c(-c3ccccn3)[nH]2)cc1: 95.6%
Clc1ccc(Nc2nnc(Cc3ccncc3)c3ccccc23)cc1: 95.9%
FC(F)(F)c1ccc(/C=C/c2nc(COc3ccc(CCCCn4ccnn4)cc3)co2)cc1: 98.3%
O=C(O)/C=C/c1cc(Br)c(Br)c(Br)c1Br: 68.7%
CC(C)(C)c1nc2c3cc[nH]c(=O)c3c3cc(F)ccc3c2[nH]1: 10.5%
Nc1nc(Nc2ccc(S(N)(=O)=O)cc2)nn1C(=S)Nc1c(F)cccc1F: 92.1%
O=Nc1c(-c2c(O)[nH]c3ccccc23)[nH]c2ccccc12: 100%
NC(=O)c1cccc(-c2cc(Nc3ccc(OC(F)(F)F)cc3)ncn2)c1: 97.7%
CC(C)N(CCC(=O)c1ccc2ccccc2c1)Cc1ccccc1: 97.8%
CCN(CC)CCCCN1c2ccccc2Oc2ccc(Cl)cc21: 109%
C[C@@H](N)[C@H]1CC[C@H](C(=O)Nc2ccncc2)CC1: 93.9%
O=C(c1ccccc1)c1ccc(N2CCOCC2)cc1O: 104%
O=C1c2ccccc2-c2nc3nnnn3nc21: 28.6%
CC(C)n1cnc2c(Nc3cccc(Cl)c3)nc(NCCO)nc21: 44.1%
COc1cc2c(N3CCN(C(=O)Nc4ccc(OC(C)C)cc4)CC3)ncnc2cc1OCCCN1CCCCC1: 101%
N#CC(c1ccnc(NCCc2cccnc2)n1)c1nc2ccccc2s1 (stereo not drawn): 91.4%
O=c1c(-c2ccc(F)cc2)c(-c2ccncc2)[nH]n1-c1ccc(Cl)cc1: 98.3%
CNc1cc2c(Nc3cccc(Br)c3)ncnc2cn1: 93.5%
N#C/C(=C(/N)SC1C=CC=CC1)c1cccc(C(O)c2ccncc2)c1 (stereo not drawn): 96.2%
O=C1NC(=O)/C(=C/c2ccc3c(c2)OC(F)(F)O3)S1: 92.9%

Sample 3
SMILES: Cn1nc(C(F)(F)F)cc1-c1cnc(N2CCc3cc(S(=O)(=O)Nc4c(F)cc(Cl)cc4F)cc(N4CCCC4=O)c32)nc1
Concentration: 1 µM
Endpoint: remaining binding
Mitogen-activated protein kinase 3 (MAPK3, Homo sapiens, UniProt P27361); cell-free assay, competition with immobilised ligand: 100%
Phosphatidylinositol 4-kinase beta (PI4KB, Homo sapiens, UniProt Q9UBF8); cell-free assay, competition with immobilised ligand: 77%
Protein-tyrosine kinase 2-beta (PTK2B, Homo sapiens, UniProt Q14289); cell-free assay, competition with immobilised ligand: 100%
Ephrin type-B receptor 6 (EPHB6, Homo sapiens, UniProt O15197); cell-free assay, competition with immobilised ligand: 82%
Serine/threonine-protein kinase pim-1 (PIM1, Homo sapiens, UniProt P11309); cell-free assay, competition with immobilised ligand: 97%
Ephrin type-A receptor 2 (EPHA2, Homo sapiens, UniProt P29317); cell-free assay, competition with immobilised ligand: 100%
Tyrosine-protein kinase Fes/Fps (FES, Homo sapiens, UniProt P07332); cell-free assay, competition with immobilised ligand: 100%
Angiopoietin-1 receptor (TEK, Homo sapiens, UniProt Q02763); cell-free assay, competition with immobilised ligand: 99%
Protein-tyrosine kinase 6 (PTK6, Homo sapiens, UniProt Q13882); cell-free assay, competition with immobilised ligand: 90%
Serine/threonine-protein kinase 17B (STK17B, Homo sapiens, UniProt O94768); cell-free assay, competition with immobilised ligand: 100%
Serine/threonine-protein kinase MAK (MAK, Homo sapiens, UniProt P20794); binding, competition with immobilised ligand: 100%
Vascular endothelial growth factor receptor 3 (FLT4, Homo sapiens, UniProt P35916); cell-free assay, competition with immobilised ligand: 96%
Tyrosine-protein kinase ABL1, phosphorylated (ABL1, Homo sapiens, UniProt P00519, F317I); binding: 85%
Tyrosine-protein kinase JAK1, JH2 (JAK1, Homo sapiens, UniProt P23458); cell-free assay, competition with immobilised ligand: 96%
cAMP-dependent protein kinase catalytic subunit beta (PRKACB, Homo sapiens, UniProt P22694); cell-free assay, competition with immobilised ligand: 81%
cAMP-dependent protein kinase catalytic subunit alpha (PRKACA, Homo sapiens, UniProt P17612); cell-free assay, competition with immobilised ligand: 100%
Receptor-interacting serine/threonine-protein kinase 2 (RIPK2, Homo sapiens, UniProt O43353); cell-free assay, competition with immobilised ligand: 82%
Bone morphogenetic protein receptor type-1A (BMPR1A, Homo sapiens, UniProt P36894); binding, competition with immobilised ligand: 98%
Serine/threonine-protein kinase 38-like (STK38L, Homo sapiens, UniProt Q9Y2H1); binding, competition with immobilised ligand: 88%
Tyrosine-protein kinase SYK (SYK, Homo sapiens, UniProt P43405); cell-free assay, competition with immobilised ligand: 100%
Macrophage colony-stimulating factor 1 receptor (CSF1R, Homo sapiens, UniProt P07333); cell-free assay, competition with immobilised ligand: 82%
Serine/threonine-protein kinase 24 (STK24, Homo sapiens, UniProt Q9Y6E0); cell-free assay, competition with immobilised ligand: 90%

Sample 4
SMILES: O=C(Nc1ccccc1)Nc1cccc(Oc2ccc3nccn3n2)c1
Concentration: 1 µM
Endpoint: remaining binding
Cyclin-dependent kinase 19 (CDK19, Homo sapiens, UniProt Q9BWU1); competitive binding panel, measured: CDK11; relative to: vehicle: 100%
Serine/threonine-protein kinase MRCK gamma (CDC42BPG, Homo sapiens, UniProt Q6DT37); competitive binding panel, measured: DMPK2; relative to: vehicle: 100%
Phosphatidylinositol 3-kinase catalytic subunit type 3 (PIK3C3, Homo sapiens, UniProt Q8NEB9); competitive binding panel, measured: VPS34; relative to: vehicle: 100%
NUAK family SNF1-like kinase 2 (NUAK2, Homo sapiens, UniProt Q9H093); competitive binding; SNARK: 100%
Serine/threonine-protein kinase PLK3 (PLK3, Homo sapiens, UniProt Q9H4B4); competitive binding panel; relative to: vehicle: 100%
Serine/threonine-protein kinase Nek7 (NEK7, Homo sapiens, UniProt Q8TDX7); competitive binding panel; relative to: vehicle: 100%
Serine/threonine-protein kinase D1 (PRKD1, Homo sapiens, UniProt Q15139); competitive binding panel; relative to: vehicle: 100%
1-phosphatidylinositol 3-phosphate 5-kinase (PIKFYVE, Homo sapiens, UniProt Q9Y2I7); competitive binding panel; relative to: vehicle: 100%
Mitogen-activated protein kinase 15 (MAPK15, Homo sapiens, UniProt Q8TD08); competitive binding panel, measured: ERK8; relative to: vehicle: 100%
Serine/threonine-protein kinase N1 (PKN1, Homo sapiens, UniProt Q16512); competitive binding panel; relative to: vehicle: 100%
Ribosomal protein S6 kinase alpha-4 (RPS6KA4, Homo sapiens, UniProt O75676); competitive binding scan; C-terminal kinase domain 2: 100%
Mitogen-activated protein kinase 8 (MAPK8, Homo sapiens, UniProt P45983); competitive binding; JNK1: 100%
Dual specificity mitogen-activated protein kinase kinase 1 (MAP2K1, Homo sapiens, UniProt Q02750); competitive binding; MEK1: 100%
Cyclin-dependent kinase 18 (CDK18, Homo sapiens, UniProt Q07002); competitive binding panel, measured: PCTK3; relative to: vehicle: 100%
Microtubule-associated serine/threonine-protein kinase 1 (MAST1, Homo sapiens, UniProt Q9Y2H9); competitive binding panel; relative to: vehicle: 100%

Excerpt of the above (sample 4):
Phosphatidylinositol 3-kinase catalytic subunit type 3 (PIK3C3, Homo sapiens, UniProt Q8NEB9); competitive binding panel, measured: VPS34; relative to: vehicle: 100%
NUAK family SNF1-like kinase 2 (NUAK2, Homo sapiens, UniProt Q9H093); competitive binding; SNARK: 100%
Serine/threonine-protein kinase PLK3 (PLK3, Homo sapiens, UniProt Q9H4B4); competitive binding panel; relative to: vehicle: 100%
Serine/threonine-protein kinase Nek7 (NEK7, Homo sapiens, UniProt Q8TDX7); competitive binding panel; relative to: vehicle: 100%
Serine/threonine-protein kinase D1 (PRKD1, Homo sapiens, UniProt Q15139); competitive binding panel; relative to: vehicle: 100%
1-phosphatidylinositol 3-phosphate 5-kinase (PIKFYVE, Homo sapiens, UniProt Q9Y2I7); competitive binding panel; relative to: vehicle: 100%
Mitogen-activated protein kinase 15 (MAPK15, Homo sapiens, UniProt Q8TD08); competitive binding panel, measured: ERK8; relative to: vehicle: 100%
Serine/threonine-protein kinase N1 (PKN1, Homo sapiens, UniProt Q16512); competitive binding panel; relative to: vehicle: 100%
Ribosomal protein S6 kinase alpha-4 (RPS6KA4, Homo sapiens, UniProt O75676); competitive binding scan; C-terminal kinase domain 2: 100%
Mitogen-activated protein kinase 8 (MAPK8, Homo sapiens, UniProt P45983); competitive binding; JNK1: 100%
Dual specificity mitogen-activated protein kinase kinase 1 (MAP2K1, Homo sapiens, UniProt Q02750); competitive binding; MEK1: 100%
